Published values pooled from the literature.
Each line is one published result; not all experiments were run side by side.
Organism: Acinetobacter baumannii

`CC[C@H](C)[C@H](NC(=O)CNC(=O)[C@H](CC(=O)O)NC(=O)[C@H](CCCNC(=N)N)NC(=O)[C@@H](NC(=O)[C@H](CC(N)=O)NC(=O)[C@H](CCCNC(=N)N)NC(=O)CNC(=O)[C@@H](NC(=O)[C@H](CCCCN)NC(=O)[C@H](CCCNC(=N)N)NC(=O)[C@@H](NC(=O)[C@H](CCCCN)NC(=O)[C@H](CCCCN)NC(=O)[C@H](Cc1ccccc1)NC(=O)[C@@H](NC(=O)[C@H](CCCCN)NC(=O)[C@H](Cc1c[nH]c2ccccc12)NC(=O)[C@@H](N)CCCNC(=N)N)[C@@H](C)CC)[C@@H](C)CC)C(C)C)C(C)C)C(=O)N[C@H](C(=O)N[C@@H](CCCCN)C(=O)N[C@@H](C)C(=O)NCC(=O)N1CCC[C@H]1C(=O)N[C@@H](C)C(=O)N[C@H](C(=O)N[C@@H](C)C(=O)N[C@H](C(=O)N[C@H](C(=O)NCC(=O)N[C@@H](CCC(N)=O)C(=O)N[C@@H](C)C(=O)N[C@@H](C)C(=O)N[C@H](C(=O)N[C@H](C(=O)N[C@H](C(=O)N[C@@H](CCCCN)C(N)=O)C(C)C)C(C)C)[C@@H](C)O)C(C)C)C(C)C)C(C)C)[C@@H](C)CC` has an MIC of 2 µM (KCCM 40203, Mueller-Hinton broth; 16 h, 37 °C; growth inhibition over 99%).
`N=C(N)NCCC[C@H](NC(=O)[C@H](Cc1c[nH]c2ccccc12)NC(=O)[C@@H](N)CCCNC(=N)N)C(=O)N[C@@H](Cc1c[nH]c2ccccc12)C(=O)N[C@@H](Cc1ccccc1)C(=O)N[C@@H](CCC(N)=O)C(=O)N[C@@H](Cc1ccccc1)C(=O)N[C@@H](CCC(N)=O)C(=O)N[C@@H](Cc1ccccc1)C(=O)N[C@@H](CCCCN)C(N)=O` has an MIC of 280 µM (broth microdilution, optical density).
`CC[C@H](C)[C@H](NC(=O)[C@H](CCCNC(=N)N)NC(=O)[C@H](CCCNC(=N)N)NC(=O)[C@H](CCCNC(=N)N)NC(=O)[C@H](CCCNC(=N)N)NC(=O)[C@H](CC(C)C)NC(=O)[C@H](CCCNC(=N)N)NC(=O)[C@H](CO)NC(=O)[C@@H](N)CO)C(=O)N[C@H](C(=O)N[C@@H](CC(C)C)C(=O)N[C@@H](CCCNC(=N)N)C(=O)N[C@@H](CCCNC(=N)N)C(=O)N[C@@H](CCCNC(=N)N)C(=O)N[C@@H](CCCNC(=N)N)C(=O)N[C@@H](Cc1ccccc1)C(=O)N[C@@H](CO)C(=O)N[C@@H](C)C(=O)N[C@@H](Cc1ccc(O)cc1)C(N)=O)C(C)C` gave an MIC of 16 µM (broth microdilution; ATCC 17978; highest value reported).
With `CC[C@H]1OC(=O)[C@H](C)[C@@H](O[C@H]2C[C@@](C)(OC)[C@@H](O)[C@H](C)O2)[C@H](C)[C@@H](O[C@@H]2O[C@H](C)C[C@H](N(C)C)[C@H]2O)[C@](C)(O)C[C@@H](C)C(=O)[C@H](C)[C@@H](O)[C@]1(C)O` the MIC was 2 µg/mL (growth inhibition; Tn7::dCas9 vector control; without ATc).
The MIC of `CC[C@H](C)[C@H](NC(=O)CN)C(=O)NCC(=O)N[C@@H](C)C(=O)N[C@H](C(=O)N[C@@H](CC(C)C)C(=O)N[C@@H](CCCCN)C(=O)N[C@H](C(=O)N[C@@H](CC(C)C)C(=O)N[C@H](C(=O)N[C@H](C(=O)NCC(=O)N[C@@H](CC(C)C)C(=O)N1CCC[C@H]1C(=O)N[C@@H](C)C(=O)N[C@@H](CC(C)C)C(=O)N[C@H](C(=O)N[C@@H](CO)C(=O)N[C@@H](Cc1c[nH]c2ccccc12)C(=O)N[C@H](C(=O)N[C@@H](CCCCN)C(=O)N[C@@H](CCCNC(=N)N)C(=O)N[C@@H](CCCCN)C(=O)N[C@@H](CCCNC(=N)N)C(=O)N[C@@H](CCC(N)=O)C(=O)N[C@@H](CCC(N)=O)C(N)=O)[C@@H](C)CC)[C@@H](C)CC)[C@@H](C)O)[C@@H](C)O)C(C)C)C(C)C` is reported as 8 µM (CCARM 12005 carbapenem-resistant).
For `CC1(C)S[C@@H]2[C@H](NC(=O)[C@H](N)c3ccccc3)C(=O)N2[C@H]1C(=O)O`, the MIC was 16 µg/mL (carbapenem-resistant clinical isolate).
For `CC[C@@H](C)[C@@H](N)C(=O)N[C@@H](C(=O)N[C@H](Cc1ccc(O)cc1)C(=O)N[C@@H](C(=O)N[C@H](CCN)C(=O)N[C@H](CC(C)C)C(=O)N[C@H](CO)C(=O)N[C@H](CCN)C(=O)N[C@@H](C(=O)N[C@H](CCN)C(=O)N[C@H](Cc1c[nH]cn1)C(=O)N[C@H](CCN)C(=O)N[C@H](C)C(=O)N[C@H](CCN)C(=O)N[C@H](CCN)C(N)=O)[C@H](C)CC)[C@H](C)CC)[C@H](C)CC`, the MIC was 8 µg/mL (broth microdilution; CDC 0288, Mueller-Hinton broth).
With `CC[C@H](C)CCCCC(=O)N[C@@H](CCN)C(=O)N[C@H](C(=O)N[C@@H](CCN)C(=O)N[C@H]1CCNC(=O)[C@H]([C@@H](C)O)NC(=O)[C@H](CCN)NC(=O)[C@H](CCN)NC(=O)[C@H](CC(C)C)NC(=O)[C@@H](CC(C)C)NC(=O)[C@H](CCN)NC1=O)[C@@H](C)O` the MIC was 8 µg/mL (lab-evolved 408).
`CC[C@H](C)[C@H](NC(=O)CNC(=O)[C@H](CC(=O)O)NC(=O)[C@H](CCCNC(=N)N)NC(=O)[C@@H](NC(=O)[C@H](CC(N)=O)NC(=O)[C@H](CCC(=O)O)NC(=O)CNC(=O)[C@@H](NC(=O)[C@H](CCCCN)NC(=O)[C@H](CCC(=O)O)NC(=O)[C@@H](NC(=O)[C@H](CCCCN)NC(=O)[C@H](CCCCN)NC(=O)[C@H](Cc1ccccc1)NC(=O)[C@@H](NC(=O)[C@H](CCCCN)NC(=O)[C@H](Cc1c[nH]c2ccccc12)NC(=O)[C@@H](N)CCCNC(=N)N)[C@@H](C)CC)[C@@H](C)CC)C(C)C)C(C)C)C(=O)N[C@H](C(=O)N[C@@H](CCCCN)C(=O)N[C@@H](C)C(=O)NCC(=O)N1CCC[C@H]1C(=O)N[C@@H](C)C(=O)N[C@H](C(=O)N[C@@H](C)C(=O)N[C@H](C(=O)N[C@H](C(=O)NCC(=O)N[C@@H](CCC(N)=O)C(=O)N[C@@H](C)C(=O)N[C@@H](C)C(=O)N[C@H](C(=O)N[C@H](C(=O)N[C@H](C(=O)N[C@@H](CCCCN)C(N)=O)C(C)C)C(C)C)[C@@H](C)O)C(C)C)C(C)C)C(C)C)[C@@H](C)CC` gave an MIC of 8 µM (KCCM 40203, Mueller-Hinton broth; 16 h, 37 °C; growth inhibition over 99%).
With `CCCC(=O)N[C@@H](CCCCN)C(=O)N[C@@H](CCCCN)C(=O)N[C@@H](C)C(=O)N[C@@H](CC(C)C)C(=O)N[C@@H](CCCCN)C(=O)N[C@@H](CC(C)C)C(=O)N[C@@H](C)C(=O)N[C@@H](CCCCN)C(=O)N[C@@H](CCCCN)C(=O)N1CCC[C@H]1C(=O)N[C@@H](CC(C)C)C(=O)N[C@@H](CCCCN)C(=O)N[C@@H](CC(C)C)C(=O)N[C@@H](CC(C)C)C(=O)N[C@@H](CCCCN)C(N)=O` the MIC was greater than 80 µM (broth microdilution; ATCC 17978; 18 h, 37 °C, compound alone).
The MIC of `CC(C)C[C@H](NC(=O)[C@@H](NC(=O)[C@H](CCCNC(=N)N)NC(=O)[C@H](CCC(N)=O)NC(=O)[C@H](Cc1ccccc1)NC(=O)[C@H](Cc1ccc(O)cc1)NC(=O)[C@H](CC(N)=O)NC(=O)[C@H](Cc1c[nH]c2ccccc12)NC(=O)[C@@H](NC(=O)[C@H](CCCNC(=N)N)NC(=O)[C@H](CCCCN)NC(=O)[C@@H](N)Cc1ccccc1)C(C)C)C(C)C)C(=O)N[C@H](C(=O)N[C@@H](CCCCN)C(=O)N[C@@H](CCCCN)C(=O)N[C@@H](Cc1ccc(O)cc1)C(=O)N[C@@H](C)C(N)=O)C(C)C` is reported as 3.1 µM (broth dilution; ATCC 19606).
With `CC[C@H](C)[C@H](NC(=O)[C@H](CC(C)C)NC(=O)[C@H](CCCNC(=N)N)NC(=O)[C@@H](N)CCCNC(=N)N)C(=O)N[C@@H](CC(C)C)C(=O)N[C@H](C(=O)N[C@@H](CCCCN)C(=O)N[C@H](C(=O)NCC(=O)N1CCC[C@H]1C(=O)N[C@H](C(=O)N[C@H](C(=O)N[C@@H](Cc1ccc(O)cc1)C(=O)N[C@@H](CCCCN)C(=O)N[C@@H](Cc1ccc(O)cc1)C(=O)N[C@@H](Cc1ccccc1)C(=O)N[C@@H](CCCCN)C(=O)N[C@@H](CCCCN)C(=O)N[C@@H](CCC(N)=O)C(=O)N[C@@H](CC(C)C)C(=O)N[C@@H](CC(C)C)C(=O)N[C@@H](CCCCN)C(=O)N[C@@H](CC(C)C)C(N)=O)[C@@H](C)CC)[C@@H](C)CC)[C@@H](C)O)[C@@H](C)O` the MIC was 2 µM (ATCC BAA1605, Mueller-Hinton broth; 24 h).
The MIC of `CC[C@H](C)[C@H](NC(=O)CNC(=O)[C@H](CC(=O)O)NC(=O)[C@H](CCCNC(=N)N)NC(=O)[C@@H](NC(=O)[C@H](CC(N)=O)NC(=O)[C@H](CCCNC(=N)N)NC(=O)CNC(=O)[C@@H](NC(=O)[C@H](CCCCN)NC(=O)[C@H](CCC(=O)O)NC(=O)[C@@H](NC(=O)[C@H](CCCCN)NC(=O)[C@H](CCCCN)NC(=O)[C@H](Cc1ccccc1)NC(=O)[C@@H](NC(=O)[C@H](CCCCN)NC(=O)[C@H](Cc1c[nH]c2ccccc12)NC(=O)[C@@H](N)CCCNC(=N)N)[C@@H](C)CC)[C@@H](C)CC)C(C)C)C(C)C)C(=O)N[C@H](C(=O)N[C@@H](CCCCN)C(=O)N[C@@H](C)C(=O)NCC(=O)N1CCC[C@H]1C(=O)N[C@@H](C)C(=O)N[C@H](C(=O)N[C@@H](C)C(=O)N[C@H](C(=O)N[C@H](C(=O)NCC(=O)N[C@@H](CCC(N)=O)C(=O)N[C@@H](C)C(=O)N[C@@H](C)C(=O)N[C@H](C(=O)N[C@H](C(=O)N[C@H](C(=O)N[C@@H](CCCCN)C(N)=O)C(C)C)C(C)C)[C@@H](C)O)C(C)C)C(C)C)C(C)C)[C@@H](C)CC` is reported as 1 µM (CCARM 12005 carbapenem-resistant).
With `CN1C(=O)Cc2ccc(F)c(CNCCCC3CN(c4ccc5c(n4)NC(=O)CO5)C(=O)O3)c21` (stereo not drawn) the MIC was 0.25 µg/mL (ATCC 19606).
`CC[C@H](C)[C@H](NC(=O)[C@H](CC(C)C)NC(=O)[C@H](CCCNC(=N)N)NC(=O)[C@@H](N)CCCNC(=N)N)C(=O)N[C@@H](CCCNC(=N)N)C(=O)N[C@H](C(=O)N[C@@H](CC(C)C)C(=O)N[C@H](C(=O)NCC(=O)N1CCC[C@H]1C(=O)N[C@H](C(=O)N[C@H](C(=O)N[C@@H](Cc1ccc(O)cc1)C(=O)N[C@@H](CC(C)C)C(=O)N[C@@H](Cc1ccc(O)cc1)C(=O)N[C@@H](Cc1ccccc1)C(=O)N[C@@H](CCCCN)C(=O)N[C@@H](CC(C)C)C(=O)N[C@@H](CCC(N)=O)C(=O)N[C@@H](CC(C)C)C(=O)N[C@@H](CC(C)C)C(=O)N[C@@H](CCCCN)C(=O)N[C@@H](CCCCN)C(N)=O)[C@@H](C)CC)[C@@H](C)CC)[C@@H](C)O)[C@@H](C)O` gave an MIC of 32 µM (KCCM 40203, Mueller-Hinton broth; 24 h).
